# Experimental data of several laboratories.
# A part holds a random share of what one study measured. Substitutions count along the parent as printed.

# Sample 1 — target: CCNB2, cyclin fold, Cln2 fusion (human); method: yeast growth competition, sequencing; medium: yeast; notes: weak parent motif; baseline: not given; direction: higher = stronger binding
# Starting sequence: PKN2 docking peptide (human); VSAVQKLDFSDTM
Variant,normalised enrichment score
D8Y,0.144
T12W,0.312
F9Q,-0.297
D8I,0.0141
T12C,0.463

# Sample 2 — method: protein binding microarray; form: double-stranded DNA, one strand shown; medium: in vitro; concentration: not given; baseline: not given; direction: higher = stronger binding
# Target: Histone acetyltransferase KAT6A, winged helix 1, GST fusion (KAT6A, Homo sapiens, UniProt Q92794, residues 1-85)
# Notes: 8-mer, flanks averaged, mean of 2 arrays, mostly near background
# Construct (chain): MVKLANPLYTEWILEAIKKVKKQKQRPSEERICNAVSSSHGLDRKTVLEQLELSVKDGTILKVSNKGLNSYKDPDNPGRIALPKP
Sequence,E-score
ACTCGGGG,0.119
CCATTCGC,0.0419
CCACTAGG,-0.147
AAATTTAT,-0.127
GCTGCCAA,-0.0604

# Sample 3 — method: competition protein-binding microarray; form: double-stranded DNA, one strand shown; medium: in vitro; concentration: 2 µM; added: Pho4 competitor, 0.05 µM; direction: higher = stronger binding; shared flanks, not repeated: … GTCTTGATTCGCTTGACGCTGCTG
# Target: Centromere-binding protein 1, full length, His-tagged (CBF1, Saccharomyces cerevisiae, UniProt P17106, residues 1-351)
# Chain of UniProt P17106 (whole entry, looked up): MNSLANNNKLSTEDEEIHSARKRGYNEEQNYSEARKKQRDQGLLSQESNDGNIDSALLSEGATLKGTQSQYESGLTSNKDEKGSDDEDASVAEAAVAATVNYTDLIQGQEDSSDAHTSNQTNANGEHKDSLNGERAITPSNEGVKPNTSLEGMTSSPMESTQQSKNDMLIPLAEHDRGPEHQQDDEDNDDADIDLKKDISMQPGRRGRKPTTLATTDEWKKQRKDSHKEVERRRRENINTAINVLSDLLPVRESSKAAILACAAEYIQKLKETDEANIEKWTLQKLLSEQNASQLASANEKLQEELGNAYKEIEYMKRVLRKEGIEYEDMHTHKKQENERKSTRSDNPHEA
# Notes: whole 60-bp probe, lowest competitor level
Sequence,fluorescence intensity [a.u.]
ATTACCTTGGCCCTTCACGGGCGGGTTCCTCGGAAT,49.6
CCGGTTTTTATTCCTCCCGTGGTCGTTGTCTCTACC,95.9
TTACTGCGATTATCGCACGGGTGTGGAGGTGTCGCT,66.9
CTTCTGTAAATTTGTCACAAGACTTGACGCGCCCCG,143
TCATAGTAGGTTTGTCATGCGCGTTGGAAAAAGAAA,103
TGTTCTCGACGACAACTCGTGTCGGTTCCATGCTAT,87.6

# Further values, each from its own experiment
Substance,target,assay,test system,conditions,scale,endpoint,value
"PhoQ, residues 284 288 289 292 302 303 AGGLSV","PhoP, residues 12 14 15 18 19 LWHVM (Escherichia coli, UniProt P23836)","Sort-seq, measured: YFP reporter",E. coli,"PhoQ-PhoP variant library, added: 10 µM Mg2+","baseline: high Mg2+ state, higher = stronger signaling",fold induction,1.23

# For quick reference, copied from above (sample 3):
Sequence,fluorescence intensity [a.u.]
CCGGTTTTTATTCCTCCCGTGGTCGTTGTCTCTACC,95.9
